Measurements of several laboratories.
Lines come from different studies, so protocols differ. ± gives the spread as reported.
T1: RNA riboswitch U41C (Lactobacillus rhamnosus); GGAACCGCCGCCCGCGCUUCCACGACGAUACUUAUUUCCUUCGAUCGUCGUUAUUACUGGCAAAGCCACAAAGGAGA

Under “dissociation rate, slow phase”, `CNc1ccccc1C(=O)O[C@H]1C[C@H](n2cnc3c(N)ncnc32)O[C@@H]1COP(=O)(O)OP(=O)(O)O` is recorded as ~0.5 s⁻¹ (Unconventional myosin-Va (Gallus gallus, UniProt Q02440, D297C/G292C/I296C/S293C/V295G); stopped-flow FRET; 4–15 °C, added: 4 mM EDTA).
The remaining activity of `CCc1nc2sc(C(=O)c3ccc(C(C)C)cc3)c(N)c2c2c1CCCC2` is reported as 51.2 ± 4.8% (CD38 (Homo sapiens, UniProt P28907); hydrolase activity, fluorometric; 50 µM, added: ε-NAD+ substrate; reference: untreated).
For `CC(=O)NCCN(CC(=O)NCCN(CC(=O)NCCN(CC(=O)NCCC(N)=O)C(=O)C[C@@H](N)CCCNC(=N)N)C(=O)C[C@@H](N)CCCNC(=N)N)C(=O)C[C@@H](N)Cc1ccccc1`, “binding free energy ΔG°” read -8.87 ± 0.669 kcal/mol (HIV-1 TAR RNA; 25 °C).
For `CNc1nc2c(c(=O)[nH]1)[n+](C)cn2[C@@H]1O[C@H](COP(=O)(O)OP(=O)(O)OP(=O)(O)OC[C@H]2O[C@@H](n3cnc4c(=O)[nH]c(N)nc43)[C@H](O)[C@@H]2O)[C@@H](O)[C@H]1O`, “initial hydrolysis rate” read 3.73 ± 0.28 µM/min (m7GpppX diphosphatase (dcs-1, Caenorhabditis elegans, UniProt G5EFS4); decapping, substrate, HPLC; concentration not given).
With `CC(=O)NCCN(CCC(=O)NCCN(CCC(=O)NCCN(CCC(=O)NCCC(N)=O)C(=O)[C@@H](N)CCCNC(=N)N)C(=O)[C@@H](N)CCCNC(=N)N)C(=O)[C@@H](N)Cc1ccccc1` the non-electrostatic ΔG° was -8.246 ± 0.0478 kcal/mol (HIV-1 TAR RNA; extrapolated to 1 M KCl).
With `Cc1cn([C@@H]2C[C@@H](O)[C@H](COP(=O)(O)O)O2)c(=O)[nH]c1=O` the KD ratio was 22 (Thymidylate kinase (DTYMK, Homo sapiens, UniProt P23919); binding, fluorescence competition; added: MABA-dTDP; reference: compound over D-dTMP).
The Kd of `NCc1c[nH]c2nc(N)[nH]c(=O)c12` is reported as 1600 nM (T1, RNA riboswitch U41C (Lactobacillus rhamnosus); ITC; pH 7.0, NaCl 0.10 M).
For `CCc1nc2cc3ccccc3cc2cc1C(=O)N1CCC[C@H]1C(=O)N[C@@H](CCC/C=C/CCC[C@H](NC(=O)[C@@H]1CCCN1C(=O)c1cc2cc3ccccc3cc2nc1CC)C(=O)N[C@@H](CCCCN)C(=O)NCCCN)C(=O)N[C@@H](CCCCN)C(=O)NCCCN`, the residence time was 27 s (HIV-1 frameshift site RNA; SPR).
`Cc1cnn2ccc(-c3ccc4c(c3)CN([C@H]3CCC(=O)NC3=O)C4=O)nc12` gave a Dmax of 91% (Cereblon/Casein kinase I alpha (CSNK1A1/CRBN, Homo sapiens, UniProt P48729+Q96SW2); protein level, degrader, luciferase; MOLT-4).
`CCc1cc(C)n2nc(-c3ccc(OCC[18F])cc3)c(CC(=O)N(CC)CC)c2n1` — result for “k4 rate constant”: 0.017 ± 0.002 min⁻¹ (Tspo (Rattus norvegicus, UniProt P16257); two-tissue compartment model; rat C6 glioma model, tumor; 60 min dynamic PET).
`CN1C[C@H](c2cccc(C(F)(F)F)c2)[C@@H](C(=O)Nc2ccccc2F)C1=O` — result for “alpha factor of Ki”: 9.5 ± 2.4 (PYRD (Oryza sativa, UniProt Q7XKC8); mixed-type inhibitor; added: decylubiquinone).

Repeated from above:
For `CC(=O)NCCN(CC(=O)NCCN(CC(=O)NCCN(CC(=O)NCCC(N)=O)C(=O)C[C@@H](N)CCCNC(=N)N)C(=O)C[C@@H](N)CCCNC(=N)N)C(=O)C[C@@H](N)Cc1ccccc1`, “binding free energy ΔG°” read -8.87 ± 0.669 kcal/mol (HIV-1 TAR RNA; 25 °C).
